Results from different studies.
Each line is one published result; not all experiments were run side by side. Several values in a cell are separate wells, animals, samples, runs or records. ± gives the spread as reported. Ends that are not written are not given here.
T1: AfsR 1-980 (Streptomyces avermitilis); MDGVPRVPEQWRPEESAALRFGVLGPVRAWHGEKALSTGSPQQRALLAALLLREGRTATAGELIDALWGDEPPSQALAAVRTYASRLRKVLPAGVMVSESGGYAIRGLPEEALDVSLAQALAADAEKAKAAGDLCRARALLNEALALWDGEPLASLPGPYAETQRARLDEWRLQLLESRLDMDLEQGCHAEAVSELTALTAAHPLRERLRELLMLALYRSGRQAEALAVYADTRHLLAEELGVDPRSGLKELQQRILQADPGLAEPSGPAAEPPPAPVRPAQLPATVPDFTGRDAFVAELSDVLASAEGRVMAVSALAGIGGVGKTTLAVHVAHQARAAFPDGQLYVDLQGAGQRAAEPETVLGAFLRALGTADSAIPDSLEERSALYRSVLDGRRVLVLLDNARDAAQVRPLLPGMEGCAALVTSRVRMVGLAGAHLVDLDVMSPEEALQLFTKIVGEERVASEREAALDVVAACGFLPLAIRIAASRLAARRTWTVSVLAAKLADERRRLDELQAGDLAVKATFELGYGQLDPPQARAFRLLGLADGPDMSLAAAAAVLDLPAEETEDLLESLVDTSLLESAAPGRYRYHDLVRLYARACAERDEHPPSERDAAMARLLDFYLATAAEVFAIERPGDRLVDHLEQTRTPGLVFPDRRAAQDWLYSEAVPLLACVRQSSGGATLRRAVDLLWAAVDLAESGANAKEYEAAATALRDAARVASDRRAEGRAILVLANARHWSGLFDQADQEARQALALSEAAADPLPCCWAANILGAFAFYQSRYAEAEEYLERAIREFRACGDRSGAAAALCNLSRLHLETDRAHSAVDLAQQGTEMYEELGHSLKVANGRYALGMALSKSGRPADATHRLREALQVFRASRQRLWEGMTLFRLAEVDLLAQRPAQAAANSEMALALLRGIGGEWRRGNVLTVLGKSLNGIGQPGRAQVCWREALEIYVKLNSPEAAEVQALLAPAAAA
B1: disulfide; chain ATCYCRTGRCATRESLSGVCEISGRLYRLCCR (disulfide (positions not given here))
B2: Urtica dioica agglutinin; sequence looked up; chain QRCGSQGGGGTCPALWCCSIWGWCGDSEPYCGRTCENKCWSGERSDHRCGAAVGNPPCGQDRCCSVHGWCGGGNDYCSGSKCQYRCSSSVRGPRVALSGNSTANSIGNVVVTEPLFDQMFSHRKDCPSQGFYSYHSFLVAAESFPAFGTIGDVATRKREVAAFLAHISQATSGERSDVENPHAWGLCHINTTTVTENDFCTSSDWPCAAGKKYSPRGPIQLTHNFNYGLAGQAIGEDLIQNPDLVEKDPIISFKTALWFWMSQHDNKPSCHDIVLNANSAANRIPNKGVIGNIISRAFGHDDFAVRSSSIGFYKRYCDMLGVSYGHDLKYWFDNTPSSEFQRIQMRVAA
B3: enzyme (Enterococcus faecalis, UniProt Q836M4); chain MEIHFEKVTSDNRKAVENLQVFAEQQAFIESMAENLKESDQFPEWESAGIYDGNQLIGYAMYGRWQDGRVWLDRFLIDQRFQGQGYGKAACRLLMLKLIEKYQTNKLYLSVYDTNSSAIRLYQQLGFVFNGELDTNGERVMEWTHQNK
Chain of UniProt O43614 (whole entry, unmodified, looked up): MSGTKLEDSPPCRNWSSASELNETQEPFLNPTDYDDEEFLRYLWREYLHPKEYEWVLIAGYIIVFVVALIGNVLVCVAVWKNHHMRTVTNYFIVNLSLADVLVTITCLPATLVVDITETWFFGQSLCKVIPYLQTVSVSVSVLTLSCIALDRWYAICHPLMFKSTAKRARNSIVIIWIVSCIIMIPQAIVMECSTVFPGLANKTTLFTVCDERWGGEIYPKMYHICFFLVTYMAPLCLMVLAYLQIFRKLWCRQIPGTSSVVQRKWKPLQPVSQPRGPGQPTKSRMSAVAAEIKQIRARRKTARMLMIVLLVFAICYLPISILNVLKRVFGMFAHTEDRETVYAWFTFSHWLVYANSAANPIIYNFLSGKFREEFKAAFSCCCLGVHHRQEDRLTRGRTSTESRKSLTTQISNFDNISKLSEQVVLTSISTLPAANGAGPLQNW
Chain of UniProt Q96RI1 (whole entry, looked up): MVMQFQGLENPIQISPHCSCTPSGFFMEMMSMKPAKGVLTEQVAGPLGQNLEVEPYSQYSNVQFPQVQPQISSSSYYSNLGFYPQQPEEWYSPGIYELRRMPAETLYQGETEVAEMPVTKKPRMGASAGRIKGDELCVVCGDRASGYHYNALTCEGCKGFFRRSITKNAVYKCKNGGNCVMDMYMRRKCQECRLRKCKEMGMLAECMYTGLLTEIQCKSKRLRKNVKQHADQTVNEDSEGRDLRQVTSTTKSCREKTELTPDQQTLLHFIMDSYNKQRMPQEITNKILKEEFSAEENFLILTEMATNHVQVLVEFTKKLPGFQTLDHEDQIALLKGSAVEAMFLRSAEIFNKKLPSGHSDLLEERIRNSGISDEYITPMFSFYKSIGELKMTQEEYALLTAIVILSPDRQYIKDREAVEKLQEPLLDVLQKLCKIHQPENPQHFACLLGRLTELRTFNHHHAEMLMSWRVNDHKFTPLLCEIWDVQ

Substance | target or system | test | test system | setting | how to read | endpoint | value
Polymyxin B | Escherichia coli | broth microdilution | E23 clinical isolate | 20 h |  | MIC | 1 µg/mL
HVLVMSATRR |  |  | peptide, C57BL/6J mice, male, serum | subcutaneous osmotic pump, 3 mg/kg/day peptide basis, 8 weeks |  | GGT | 0 U/L
glucagon |  | ELISA | human, non-diabetic, femoral artery plasma | baseline |  | arterial plasma concentration | 24.3 ± 1.4 pg/mL
orexin-B | HCRTR2 (Homo sapiens, UniProt O43614, del254-292/I293E/K294R/L160H/M161K/Q254E) | receptor activation kinetics | human cells |  |  | activation time constant tau | 751 ms and 508 ms and 970 ms and 1040 ms
RNA 1 AACAAAACAAAAUAGCACCGUAAAGC / RNA 2 GCUUUACGGUGCUA (dsRNA; 14 bp duplex, 5' 12 nt overhang) | DEAD-box ATP-dependent RNA helicase RhpA 1-392 (Pseudomonas aeruginosa, UniProt Q9HX66) | fluorescence polarization | double-stranded RNA | together with: AMP-PNP 1 mM |  | Kd | 84 nM
CBR-5884 | human coronavirus OC43 | virus-induced cell death | MRC-5 |  |  | maximum inhibition | 11.2%
DPDPE |  | RP-HPLC | HALO C18 column | 25 µM, formic acid/acetonitrile, 25 min gradient |  | retention time | 6.59 min
ILPWPWPWWPWRR | Escherichia coli |  | peptide, K-12 MG1655, Mueller-Hinton broth | concentration not given, 37 °C, unit not given | relative to: no peptide | growth rate | 0.128
VRRRRVSRFGRGRGY | Micrococcus luteus | bacterial survival, plate count | peptide | 20 µM, 4 h, room temperature | relative to: untreated control | bacterial killing | 100%
TC-G 1005 | human coronavirus OC43 | virus-induced cell death | MRC-5 |  |  | maximum inhibition | 20%
KLGKGGGLLKKLK | Candida albicans | growth | peptide, ATCC 10231, potato dextrose broth | 128 µM, 30 °C |  | inhibition | 0 fraction (0-1)
Ivermectin | Bile acid receptor (NR1H4, Homo sapiens, UniProt Q96RI1) | receptor activity, inhibitor | cells |  |  | IC50 | 1180 ± 980 nM
heparin sodium |  |  | healthy Chinese adult volunteers | continuous intravenous infusion, 8 IU/kg/h, 5 days |  | abnormal liver function leading to discontinuation | 0%
KKPRPWPWKRRKK | Candida albicans | growth | peptide, ATCC 10231, potato dextrose broth | 128 µM, 30 °C |  | inhibition | 0.992 fraction (0-1)
thiostrepton | Staphylococcus aureus |  | methicillin-susceptible |  |  | MIC | 0.06 µg/mL
RRYKKREYKNIG | Streptococcus iniae | bacterial survival, plate count | peptide | 20 µM, 4 h, room temperature | relative to: untreated control | bacterial killing | 27%
ILPWFWPWWPWRR | Escherichia coli |  | peptide, K-12 MG1655, Mueller-Hinton broth | concentration not given, 37 °C, unit not given | relative to: no peptide | growth rate | 0.364
B1 | Acinetobacter baumannii | crystal violet staining | 19606 | concentration not given |  | biofilm formation | 102% and 113% and 153% and 128%
nonaarginine | PorA peptide pore | peptide binding, planar bilayer single-channel recording |  | 0.5 µM, pH 7.4, -35 mV, cis side, 150 mM KCl |  | koff | 2860 ± 290 s⁻¹
caspofungin | Aspergillus fumigatus |  | pkcA G579R, solid minimal medium | 0.125 µg/mL, 4 days, 37 °C | relative to: untreated control | radial growth ratio | 0.128 and 0.138 and 0.16
RWRYRRRGYLAMG | Micrococcus luteus | bacterial survival, plate count | peptide | 20 µM, 4 h, room temperature | relative to: untreated control | bacterial killing | 64%
ILPWEWPWWPWRR | Escherichia coli |  | peptide, K-12 MG1655, Mueller-Hinton broth | concentration not given, 37 °C, unit not given | relative to: no peptide | growth rate | 0.647
CGTGAAACTGAACTCTCCCGAGGCCGCCGAGGTGCAGGCACTGCTGGCTCCGGCCGCCGCTGCCTGACACCGGGCAGGGCGTTCATCGTTCGTTTATCGCGGCCAGGCACTCTCTTGGTTGTCGATCCGTCGCGTCGGGGGGCAGACGGACCGCCGGTGAGGTCGCCGCACTCGCACCTTAGGGTGGGCGACTCGAGTGGCCCACCCGGCCACCCTCGGGGGAGTGGCCGGGTGGGCTCTCCACAGTTCAACGGCAATCACCATGGGGAGGCACCATCATGAGCGACATCACGAAGGAC (dsDNA) | T1, AfsR 1-980 (Streptomyces avermitilis) | EMSA | double-stranded DNA, one strand shown |  |  | binding | binds

Substance | target or system | test | test system | setting | how to read | endpoint | value
hexaarginine | PorA peptide pore | peptide binding, planar bilayer single-channel recording |  | 0.5 µM, pH 7.4, -20 mV, cis side, 150 mM KCl |  | koff | 3450 ± 340 s⁻¹
ILPWRWPWWPWRR | Escherichia coli |  | peptide, K-12 MG1655, Mueller-Hinton broth | concentration not given, 37 °C, unit not given | relative to: no peptide | growth rate | 0.595
B2 (Urtica dioica agglutinin) | feline herpesvirus | viral replication | CRFK |  |  | EC50 | 1.9 µg/mL
colistin | Acinetobacter baumannii |  | 1189854, multidrug-resistant |  |  | MIC | 4 µg/mL
aspterric acid | Arabidopsis thaliana | hypocotyl length | Col-0, seedlings | 50 µg/mL, with BCAA |  | inhibition | 21.1%
KRRRGGRLSGFRTAVGY | Micrococcus luteus | bacterial survival, plate count | peptide | 20 µM, 4 h, room temperature | relative to: untreated control | bacterial killing | 48.1%
Polymyxin B | Klebsiella pneumoniae |  | ATCC 700603, Kunming mouse, pneumonia model, lung homogenate | 5 mg/kg |  | lung bacterial load | 5.08 CFU/mL
KYKKSKNGY | Streptococcus iniae | bacterial survival, plate count | peptide | 20 µM, 4 h, room temperature | relative to: untreated control | bacterial killing | 15.3%
colistin | Aspergillus fumigatus |  | solid minimal medium | 80 µM, 4 d | relative to: untreated control | radial growth ratio | 0.898 and 0.899 and 0.847
insulin human |  | item: TGM2 mRNA | EcoHIV-infected mouse, brain | i.p., dose not given | relative to: PBS | fold change | 1
KKRRRGLSRFRMGRGY | Pseudomonas fluorescens | bacterial survival, plate count | peptide | 20 µM, 4 h, room temperature | relative to: untreated control | bacterial killing | 30.5%
vancomycin | Saccharomyces cerevisiae | yeast growth |  |  |  | IC50 | > 40000 nM
Teicoplanin A2-2 | Enterococcus faecalis |  | vancomycin-susceptible |  |  | MIC | 0.25 µg/mL
melittin | Staphylococcus aureus | decreased | MRSA NCTC 12493 | 1 µM or above |  | intracellular ATP level | decreased
ILSAAWSGIKSLF | Escherichia coli | bacterial growth, OD600 growth curve | peptide, K12 MG1655, MHB broth | 40 µM, 24 h, 37 °C | relative to: no peptide control | relative growth rate | 0.514
Polymyxin B | Acinetobacter baumannii | broth microdilution, MH medium | KCCM 40203 | 16 h, 37 °C, growth inhibition over 99% |  | MIC | 2 µM
Polymyxin B | Klebsiella pneumoniae | broth microdilution | KPC-180 producing |  |  | MIC | 16 µg/mL
RQYKNRGLRGQQAGHLI | Streptococcus iniae | bacterial survival, plate count | peptide | 20 µM, 4 h, room temperature | relative to: untreated control | bacterial killing | 29.5%
ILSAAWSGILSLF | Escherichia coli | bacterial growth, OD600 growth curve | peptide, K12 MG1655, MHB broth | 40 µM, 24 h, 37 °C | relative to: no peptide control | relative growth rate | 0.0453
GMVRGA | Bacillus subtilis |  | peptide, SPbeta lysogen | 5 µM, together with: mitomycin C induction | relative to: no peptide | reduction in infective phage | 10 fold
B3 (enzyme) | NCCCNCCCCNCCCN | steady-state kinetics |  | pH 8, 37 °C, Hill n 1.7, together with: AcCoA 1 mM |  | kcat/Km | 311000 M⁻¹ s⁻¹
TRRRKRLSGFGTAVGY | Streptococcus iniae | bacterial survival, plate count | peptide | 20 µM, 4 h, room temperature | relative to: untreated control | bacterial killing | 62.2%
ILSAAWSGIISLI | Escherichia coli | bacterial growth, OD600 growth curve | peptide, K12 MG1655, MHB broth | 40 µM, 24 h, 37 °C | relative to: no peptide control | relative growth rate | 0.456

Some of these lines once more:
Substance | target or system | test | test system | setting | how to read | endpoint | value
caspofungin | Aspergillus fumigatus |  | pkcA G579R, solid minimal medium | 0.125 µg/mL, 4 days, 37 °C | relative to: untreated control | radial growth ratio | 0.128 and 0.138 and 0.16
RWRYRRRGYLAMG | Micrococcus luteus | bacterial survival, plate count | peptide | 20 µM, 4 h, room temperature | relative to: untreated control | bacterial killing | 64%
ILPWEWPWWPWRR | Escherichia coli |  | peptide, K-12 MG1655, Mueller-Hinton broth | concentration not given, 37 °C, unit not given | relative to: no peptide | growth rate | 0.647
CGTGAAACTGAACTCTCCCGAGGCCGCCGAGGTGCAGGCACTGCTGGCTCCGGCCGCCGCTGCCTGACACCGGGCAGGGCGTTCATCGTTCGTTTATCGCGGCCAGGCACTCTCTTGGTTGTCGATCCGTCGCGTCGGGGGGCAGACGGACCGCCGGTGAGGTCGCCGCACTCGCACCTTAGGGTGGGCGACTCGAGTGGCCCACCCGGCCACCCTCGGGGGAGTGGCCGGGTGGGCTCTCCACAGTTCAACGGCAATCACCATGGGGAGGCACCATCATGAGCGACATCACGAAGGAC (dsDNA) | T1, AfsR 1-980 (Streptomyces avermitilis) | EMSA | double-stranded DNA, one strand shown |  |  | binding | binds
hexaarginine | PorA peptide pore | peptide binding, planar bilayer single-channel recording |  | 0.5 µM, pH 7.4, -20 mV, cis side, 150 mM KCl |  | koff | 3450 ± 340 s⁻¹
